Assay results of several laboratories.
Numbered parts are unrelated; each lists some results of a single study. Positions count from the first letter of the parent shown.
Chain of UniProt Q9H093 (whole entry, looked up): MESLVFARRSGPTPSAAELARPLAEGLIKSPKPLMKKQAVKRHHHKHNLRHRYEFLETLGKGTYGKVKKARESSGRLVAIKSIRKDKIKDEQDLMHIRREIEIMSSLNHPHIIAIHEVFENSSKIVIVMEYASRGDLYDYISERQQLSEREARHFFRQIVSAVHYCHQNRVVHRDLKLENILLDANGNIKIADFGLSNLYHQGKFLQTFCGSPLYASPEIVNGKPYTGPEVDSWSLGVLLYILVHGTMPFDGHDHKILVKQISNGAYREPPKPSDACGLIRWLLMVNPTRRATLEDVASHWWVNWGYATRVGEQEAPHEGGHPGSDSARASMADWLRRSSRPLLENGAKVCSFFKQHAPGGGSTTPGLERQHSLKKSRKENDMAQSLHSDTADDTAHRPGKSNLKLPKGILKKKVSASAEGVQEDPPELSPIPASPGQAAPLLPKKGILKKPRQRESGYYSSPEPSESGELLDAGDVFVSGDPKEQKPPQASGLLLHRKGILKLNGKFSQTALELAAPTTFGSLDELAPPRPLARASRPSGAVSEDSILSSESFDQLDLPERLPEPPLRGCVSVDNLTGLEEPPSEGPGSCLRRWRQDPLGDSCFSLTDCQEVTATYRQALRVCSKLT
Chain of UniProt Q5VT25 (whole entry, looked up): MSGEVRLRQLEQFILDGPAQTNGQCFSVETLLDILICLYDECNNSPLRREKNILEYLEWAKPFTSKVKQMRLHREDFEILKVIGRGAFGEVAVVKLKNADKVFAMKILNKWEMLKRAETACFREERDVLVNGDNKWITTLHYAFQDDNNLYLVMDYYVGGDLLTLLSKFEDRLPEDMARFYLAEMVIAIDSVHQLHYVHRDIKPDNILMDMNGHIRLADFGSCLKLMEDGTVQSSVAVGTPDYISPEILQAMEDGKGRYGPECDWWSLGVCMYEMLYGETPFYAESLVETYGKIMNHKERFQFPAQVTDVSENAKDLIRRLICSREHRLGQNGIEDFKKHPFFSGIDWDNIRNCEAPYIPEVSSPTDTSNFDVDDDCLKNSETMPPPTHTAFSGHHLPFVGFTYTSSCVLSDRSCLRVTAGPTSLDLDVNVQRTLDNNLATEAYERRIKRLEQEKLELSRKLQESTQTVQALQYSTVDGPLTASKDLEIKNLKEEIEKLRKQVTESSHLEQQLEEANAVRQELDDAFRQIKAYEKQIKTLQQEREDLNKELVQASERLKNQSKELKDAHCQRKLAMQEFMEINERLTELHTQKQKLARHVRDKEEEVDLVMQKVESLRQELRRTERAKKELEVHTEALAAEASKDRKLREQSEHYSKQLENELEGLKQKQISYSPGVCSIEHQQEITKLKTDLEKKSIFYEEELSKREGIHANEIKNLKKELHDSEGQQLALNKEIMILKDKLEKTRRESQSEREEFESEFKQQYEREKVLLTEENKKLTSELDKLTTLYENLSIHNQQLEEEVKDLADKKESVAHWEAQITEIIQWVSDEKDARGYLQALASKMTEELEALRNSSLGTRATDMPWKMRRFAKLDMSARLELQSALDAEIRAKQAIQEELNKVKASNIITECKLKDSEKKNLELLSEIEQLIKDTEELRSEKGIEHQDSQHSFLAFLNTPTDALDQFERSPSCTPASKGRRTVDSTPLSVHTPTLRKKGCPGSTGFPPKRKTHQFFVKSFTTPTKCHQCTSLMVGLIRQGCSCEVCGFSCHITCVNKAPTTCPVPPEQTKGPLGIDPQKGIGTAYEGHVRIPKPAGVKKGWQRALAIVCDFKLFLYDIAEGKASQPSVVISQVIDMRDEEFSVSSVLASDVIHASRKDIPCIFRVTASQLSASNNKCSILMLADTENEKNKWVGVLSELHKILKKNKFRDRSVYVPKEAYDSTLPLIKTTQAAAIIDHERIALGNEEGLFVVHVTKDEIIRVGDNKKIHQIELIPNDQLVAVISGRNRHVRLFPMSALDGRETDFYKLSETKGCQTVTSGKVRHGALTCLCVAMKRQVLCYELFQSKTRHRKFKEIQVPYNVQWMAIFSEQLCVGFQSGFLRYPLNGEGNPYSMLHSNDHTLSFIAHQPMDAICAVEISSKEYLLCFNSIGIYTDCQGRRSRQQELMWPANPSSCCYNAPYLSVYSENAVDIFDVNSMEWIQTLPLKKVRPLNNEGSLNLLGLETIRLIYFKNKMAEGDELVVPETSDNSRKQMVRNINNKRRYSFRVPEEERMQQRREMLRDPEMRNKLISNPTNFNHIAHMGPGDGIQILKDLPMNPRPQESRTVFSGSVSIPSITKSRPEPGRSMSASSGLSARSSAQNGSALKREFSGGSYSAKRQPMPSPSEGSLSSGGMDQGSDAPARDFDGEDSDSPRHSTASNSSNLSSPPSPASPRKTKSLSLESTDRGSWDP
Chain of UniProt Q96SB4 (whole entry, looked up): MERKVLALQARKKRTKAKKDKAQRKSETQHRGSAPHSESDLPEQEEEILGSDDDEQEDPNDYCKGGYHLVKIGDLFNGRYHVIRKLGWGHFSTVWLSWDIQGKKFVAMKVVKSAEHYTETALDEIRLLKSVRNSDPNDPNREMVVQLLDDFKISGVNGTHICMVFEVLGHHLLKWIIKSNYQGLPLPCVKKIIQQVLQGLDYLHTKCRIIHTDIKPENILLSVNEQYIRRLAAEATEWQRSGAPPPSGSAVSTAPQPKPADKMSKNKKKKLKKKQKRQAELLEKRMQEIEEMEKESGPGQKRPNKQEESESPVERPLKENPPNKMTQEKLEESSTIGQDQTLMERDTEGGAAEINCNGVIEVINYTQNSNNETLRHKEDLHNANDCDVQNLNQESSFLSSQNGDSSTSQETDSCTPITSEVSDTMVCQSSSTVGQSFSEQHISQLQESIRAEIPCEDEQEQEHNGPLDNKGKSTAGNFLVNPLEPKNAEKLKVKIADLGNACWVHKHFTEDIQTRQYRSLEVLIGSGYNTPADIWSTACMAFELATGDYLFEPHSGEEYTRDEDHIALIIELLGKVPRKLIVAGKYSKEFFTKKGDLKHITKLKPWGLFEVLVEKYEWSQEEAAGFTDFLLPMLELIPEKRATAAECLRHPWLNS
Chain of UniProt Q08881 (whole entry, looked up): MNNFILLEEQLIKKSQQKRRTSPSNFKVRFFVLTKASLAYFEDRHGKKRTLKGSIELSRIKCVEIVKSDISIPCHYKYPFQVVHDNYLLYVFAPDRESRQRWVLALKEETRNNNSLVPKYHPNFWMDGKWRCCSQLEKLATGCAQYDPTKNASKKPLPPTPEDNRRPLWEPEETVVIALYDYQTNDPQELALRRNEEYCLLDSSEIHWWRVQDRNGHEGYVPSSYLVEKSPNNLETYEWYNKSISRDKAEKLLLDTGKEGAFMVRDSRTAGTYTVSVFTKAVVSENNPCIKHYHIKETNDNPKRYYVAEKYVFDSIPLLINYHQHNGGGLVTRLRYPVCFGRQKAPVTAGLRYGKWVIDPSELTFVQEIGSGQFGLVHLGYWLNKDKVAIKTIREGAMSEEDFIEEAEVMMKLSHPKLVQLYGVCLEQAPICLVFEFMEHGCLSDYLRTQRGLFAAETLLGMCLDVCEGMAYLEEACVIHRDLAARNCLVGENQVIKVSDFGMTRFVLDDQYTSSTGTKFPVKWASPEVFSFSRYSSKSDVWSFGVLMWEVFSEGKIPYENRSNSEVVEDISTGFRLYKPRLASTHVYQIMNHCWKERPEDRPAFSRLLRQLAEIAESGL

Block 1
Target: CCNA2, cyclin fold, Cln2 fusion (human)
Method: yeast growth competition, sequencing
Matrix: yeast
Notes: strong parent motif
Relative to: not given
Direction: higher = stronger binding
Parent: WEE1 docking peptide (human); HKTFRKLRLFDTP
| Change | normalised enrichment score |
| --- | --- |
| T3Q | 0.995 |
| L7R | 1.06 |
| K6M | 0.426 |
| R8P | 0.427 |
| R8T | 1.14 |
| P13I | 1.49 |
| T3F | 1.74 |
| L9A | 2.41 |

Block 2
Target: Serine/threonine-protein kinase Sgk1 (SGK1, Homo sapiens, UniProt O00141)
Observed: enzyme activity
Mode: inhibitor
Concentration: 0.5 µM
Relative to: control
Construct (O00141 1-431): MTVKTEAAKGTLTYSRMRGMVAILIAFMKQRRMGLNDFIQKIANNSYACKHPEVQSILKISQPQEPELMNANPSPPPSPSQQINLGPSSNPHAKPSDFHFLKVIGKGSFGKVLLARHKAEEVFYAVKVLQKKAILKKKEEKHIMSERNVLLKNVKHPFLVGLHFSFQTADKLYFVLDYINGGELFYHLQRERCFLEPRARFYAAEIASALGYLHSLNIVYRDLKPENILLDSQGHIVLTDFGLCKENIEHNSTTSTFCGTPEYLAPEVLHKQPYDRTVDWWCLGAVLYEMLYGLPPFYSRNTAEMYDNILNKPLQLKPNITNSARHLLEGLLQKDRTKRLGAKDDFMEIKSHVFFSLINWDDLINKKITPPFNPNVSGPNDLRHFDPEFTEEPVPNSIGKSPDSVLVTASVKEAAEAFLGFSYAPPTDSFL
| SMILES | remaining activity |
| --- | --- |
| Nc1[nH]nc2nc3ccccc3nc12 | 114% |
| Cc1cccc(-c2[nH]c(C(C)(C)C)nc2-c2ccc3c(c2)OCO3)n1 | 99.6% |
| N#CC(C#N)=C(N)/C(C#N)=C/c1ccc(O)cc1 | 96.1% |
| O=S(=O)(c1cccc2cnccc12)N1CCCNCC1 | 96.6% |
| Cc1ccc(Nc2nccc(N(C)c3ccc4c(C)n(C)nc4c3)n2)cc1S(N)(=O)=O | 125% |
| COc1cc2ncnc(Nc3ccc(F)c(Cl)c3)c2cc1OCCCN1CCOCC1 | 131% |
| COc1ccc(OC)c2c(=S)c3ccccc3[nH]c12 | 125% |
| C#Cc1cccc(Nc2ncnc3cc(OCCOC)c(OCCOC)cc23)c1 | 122% |
| COc1ccc(C(=O)Nc2sc3c(c2C(N)=O)CCCC3)cc1OC | 98.7% |
| NCCNc1ncc(C(N)=O)c(Nc2cccc(C(F)(F)F)c2)n1 | 95.1% |
| O=C1NC(=O)C(c2cn(CCCO)c3ncccc23)=C1c1cnccn1 | 91.2% |
| CCOC(=O)c1c(C)[nH]c(/C=C2\C(=O)Nc3ccccc32)c1C | 92% |
| Cn1sc(=O)n(Cc2ccccc2)c1=O | 94% |
| Nc1ccc2ncnc(NCCc3ccc(Oc4ccccc4)cc3)c2c1 | 104% |
| COc1ccc(CNC(=O)Nc2ncc([N+](=O)[O-])s2)cc1 | 105% |

Block 3
Compound: O=C(N[C@H]1CCCCC/C=C\C2C[C@@]2(C(=O)O)NC(=O)[C@@H]2C[C@@H](Oc3ccncc3)CN2C1=O)OC1CCCC1 (stereo partly drawn)
Method: competition with immobilised ligand
Concentration: 1 µM
| target | test | remaining binding [%] |
| --- | --- | --- |
| ALK tyrosine kinase receptor (ALK, Homo sapiens, UniProt Q9UM73) | cell-free assay | 100 |
| SRSF protein kinase 1 (SRPK1, Homo sapiens, UniProt Q96SB4) | binding | 91 |
| NUAK family SNF1-like kinase 2 (NUAK2, Homo sapiens, UniProt Q9H093) | binding | 100 |
| Tyrosine-protein kinase ITK/TSK (ITK, Homo sapiens, UniProt Q08881) | binding | 100 |
| Serine/threonine-protein kinase MRCK alpha (CDC42BPA, Homo sapiens, UniProt Q5VT25) | cell-free assay | 87 |

Block 4
Target: Eukaryotic initiation factor 4A-I (EIF4A1, Homo sapiens, UniProt P60842, residues 1-406, full length assumed)
Chain of UniProt P60842 (whole entry, looked up): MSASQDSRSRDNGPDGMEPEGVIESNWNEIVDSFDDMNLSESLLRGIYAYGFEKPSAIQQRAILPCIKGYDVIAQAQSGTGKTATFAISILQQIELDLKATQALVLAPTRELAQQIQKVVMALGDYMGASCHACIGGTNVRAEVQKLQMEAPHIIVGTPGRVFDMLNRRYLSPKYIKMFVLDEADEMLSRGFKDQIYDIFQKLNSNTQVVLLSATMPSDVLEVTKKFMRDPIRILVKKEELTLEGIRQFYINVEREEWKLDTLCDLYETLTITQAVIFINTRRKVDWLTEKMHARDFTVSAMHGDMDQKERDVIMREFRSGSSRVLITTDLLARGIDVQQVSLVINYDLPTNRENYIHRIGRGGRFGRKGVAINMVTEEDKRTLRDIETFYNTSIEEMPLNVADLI
Method: RNA Bind-n-Seq
Molecule type: RNA
Matrix: in vitro
Concentration: 15 pmol
Notes: 4-mer, random 30-nt RNA, single round
Added: DMSO vehicle, 2 mM AMP-PNP
Relative to: input library
Direction: higher = stronger binding
| Oligonucleotide | 4-mer enrichment [fold] |
| --- | --- |
| CAGG | 1.5 |
| UCAC | 1.05 |
| GGGG | 1.04 |
| AAAA | 1.52 |
| UUAU | 0.852 |
| UACU | 0.816 |
| AUUG | 0.793 |
| CCGC | 1.62 |

A few entries again (block 3):
| target | test | remaining binding [%] |
| --- | --- | --- |
| Serine/threonine-protein kinase MRCK alpha (CDC42BPA, Homo sapiens, UniProt Q5VT25) | cell-free assay | 87 |
| Tyrosine-protein kinase ITK/TSK (ITK, Homo sapiens, UniProt Q08881) | binding | 100 |
| ALK tyrosine kinase receptor (ALK, Homo sapiens, UniProt Q9UM73) | cell-free assay | 100 |
| NUAK family SNF1-like kinase 2 (NUAK2, Homo sapiens, UniProt Q9H093) | binding | 100 |
| SRSF protein kinase 1 (SRPK1, Homo sapiens, UniProt Q96SB4) | binding | 91 |
